Measurements pooled from the literature.
Compare with care: the assays were run in different laboratories. “And” joins repeats or separate records; there may be more than shown. ± marks the error that the study gave.

Structure (SMILES) | assay | system | setting | how to read | quantity | value
COC1OC(C)C(OC2OC(C)C(OS(=O)(=O)O)C(OC3OC(C)C(OS(=O)(=O)O)C(OS(=O)(=O)O)C3OS(=O)(=O)O)C2OS(=O)(=O)O)C(OS(=O)(=O)O)C1OS(=O)(=O)O (stereo not shown) | – | human plasma | 128 µg/mL | – | activated partial thromboplastin time | 54.7 ± 0.8 s
CN1CCC[C@]1(C)/C=C/S(=O)(=O)NC(=O)Nc1c2c(cc3c1CCC3)CCC2 | – | human, whole blood ex vivo | 250 mg single dose, 24 h, single ascending dose, added: LPS and ATP | – | IL-18 inhibition | 98.7%
CC(=O)[O-].O.O.[O-]c1ccc(Br)cc1C=NCCN1CCOCC1.[Zn+2] | DPPH radical scavenging | – | 80 µM | – | inhibition | 18.3%
COc1ccc(NC(=O)c2ccc3[nH]c(-c4ccc(N(C)C)cc4)nc3c2)cn1 | – | CT26, BALB/c nude mice, subcutaneous graft | dose not given, day 7 | – | tumour volume | 422 mm3 and 1840 mm3 and 892 mm3 and 450 mm3 and 477 mm3
COC1OC(C)C(OC2OC(C)C(O)C(OC3OC(C)C(OC4OC(C)C(O)C(OC5OC(C)C(OC6OC(C)C(O)C(OS(=O)(=O)O)C6OS(=O)(=O)O)C(OS(=O)(=O)O)C5OS(=O)(=O)O)C4OS(=O)(=O)O)C(OS(=O)(=O)O)C3OS(=O)(=O)O)C2OS(=O)(=O)O)C(OS(=O)(=O)O)C1OS(=O)(=O)O (stereo not shown) | – | human plasma | 128 µg/mL | – | activated partial thromboplastin time | 118 ± 1.8 s
CCCCCCCCCCCCCCCC(=O)NCCCC[C@H](NC(=O)[C@H](CCC(=O)O)NC(=O)[C@H](Cc1ccc(O)cc1)NC(=O)[C@H](CCC(=O)O)NC(=O)COCC(=O)NCCCOCCOCCOCCCNC(=O)[C@H](Cc1ccccc1)NC(=O)[C@H](CC(N)=O)NC(=O)[C@H](Cc1c[nH]cn1)NC(=O)[C@@H](NC(=O)[C@H](CC(=O)O)NC(=O)[C@H](CCC(N)=O)NC(=O)[C@H](CC(C)C)NC(=O)[C@H](CCCCN)NC(=O)[C@H](CCCCN)NC(=O)[C@H](CCCNC(=N)N)NC(=O)[C@H](CC(C)C)NC(=O)[C@H](Cc1c[nH]c2ccccc12)NC(=O)[C@H](CCC(=O)O)NC(=O)[C@@H](NC(=O)[C@H](CCCNC(=N)N)NC(=O)[C@H](CCC(=O)O)NC(=O)[C@H](CCSC)NC(=O)[C@H](CO)NC(=O)[C@H](CC(N)=O)NC(=O)[C@H](CC(C)C)NC(=O)[C@H](Cc1c[nH]cn1)NC(=O)[C@H](CCCCN)NC(=O)CNC(=O)[C@H](CC(C)C)NC(=O)[C@H](CC(N)=O)NC(=O)[C@H](Cc1c[nH]cn1)NC(=O)[C@H](CCSC)NC(=O)[C@H](CC(C)C)NC(=O)[C@H](CCC(N)=O)NC(=O)[C@@H](NC(=O)[C@H](CCC(=O)O)NC(=O)[C@H](CO)NC(=O)[C@@H](NC(=O)[C@@H](N)CO)C(C)C)[C@@H](C)CC)C(C)C)C(C)C)C(=O)N[C@@H](CCC(=O)O)C(=O)N[C@@H](Cc1ccc(O)cc1)C(=O)N[C@@H](CCC(=O)O)C(N)=O | micro-CT | humanized PTH1R mouse, femur | dose not given | – | bone volume/total volume | 40.9% and 82.9% and 54.2%
COC1OC(C)C(OS(=O)(=O)O)C(OC2OC(C)C(OS(=O)(=O)O)C(OC3OC(C)C(OS(=O)(=O)O)C(OC4OC(C)C(OS(=O)(=O)O)C(OC5OC(C)C(OS(=O)(=O)O)C(OC6OC(C)C(OS(=O)(=O)O)C(OC7OC(C)C(OS(=O)(=O)O)C(OS(=O)(=O)O)C7O)C6O)C5O)C4O)C3O)C2O)C1O (stereo not shown) | – | human plasma | 128 µg/mL | – | activated partial thromboplastin time | 38.5 ± 0.3 s
O=C1CCC(N2Cc3ccccc3C2=O)C(=O)N1 (stereo not shown) | deuterium-hydrogen exchange | aqueous phosphate buffer | pH 7.4, 37 °C | – | exchange rate constant | -0.0354 h⁻¹
COC1OC(C)C(OS(=O)(=O)O)C(OC2OC(C)C(OS(=O)(=O)O)C(OC3OC(C)C(OS(=O)(=O)O)C(OC4OC(C)C(OS(=O)(=O)O)C(OS(=O)(=O)O)C4OS(=O)(=O)O)C3OS(=O)(=O)O)C2OS(=O)(=O)O)C1OS(=O)(=O)O (stereo not shown) | – | human plasma | 64 µg/mL | – | activated partial thromboplastin time | 63 s and 61.9 s and 63.4 s
C[C@@H]1Cc2c([nH]c3ccccc23)[C@@H](c2c(F)cc(/C=C/C(=O)O)cc2F)N1C12CC(C1)C2 | immunohistochemistry, measured: progesterone receptor | human patients, PR-positive tumours, tumour biopsy | day 21, paired biopsies, average | direction not given | H-score | 170
COC(=O)C1CN1S(=O)(=O)c1ccc2cc(C)ccc2c1 (stereo not shown) | – | mouse, Lewis lung carcinoma | ip, 100 mg/kg, 288 h | – | tumour growth inhibition | 38%
COC1OC(C)C(OC2OC(C)C(O)C(OC3OC(C)C(OC4OC(C)C(O)C(OC5OC(C)C(OC6OC(C)C(O)C(OC7OC(C)C(OC8OC(C)C(O)C(OC9OC(C)C(OC%10OC(C)C(O)C(OS(=O)(=O)O)C%10OS(=O)(=O)O)C(OS(=O)(=O)O)C9OS(=O)(=O)O)C8OS(=O)(=O)O)C(OS(=O)(=O)O)C7OS(=O)(=O)O)C6OS(=O)(=O)O)C(OS(=O)(=O)O)C5OS(=O)(=O)O)C4OS(=O)(=O)O)C(OS(=O)(=O)O)C3OS(=O)(=O)O)C2OS(=O)(=O)O)C(OS(=O)(=O)O)C1OS(=O)(=O)O (stereo not shown) | – | human plasma | 16 µg/mL | – | activated partial thromboplastin time | 49.2 s and 50.7 s and 50.9 s
COc1cc(O)ccc1CCC(c1ccc(O)cc1)c1cc2c(c(C)c1O)OC(c1ccc(O)cc1)CC2 (mixture of isomers) | – | human blood | 10 µM, added: A23187 | – | TXB2 level | 767 ± 254 pg/mL
COC1CN([C@H]2CC[C@H]([C@@]3(C)Oc4c(Cl)cc(C(=O)NCc5c(SC)cc(C)[nH]c5=O)c(C)c4O3)CC2)C1 | RNA-seq, measured: SPATA6 mouse homolog | mouse, HT-1376 xenograft, whole blood | dose not given | reference: vehicle | log2 fold change | 0.834
COc1c(Cl)cccc1Nc1c(-c2ccncc2C#C[C@@]2(C)CCCN2C(=O)/C=C/CN(C)C)[nH]c2c1C(=O)NCC2 | – | male NSG mouse, PDX | 100 mg/kg once daily, 42 days, EGFR SVD | – | tumour growth inhibition | 139%
O=S(=O)(NCc1ccncc1)c1ccc(C2CCCCC2)cc1 | immunohistochemistry | CK-p25 mice male, hippocampal granule layer | ip, 0.3 mg/kg daily, 2 wk | reference: vehicle | increase of intact GFP+ neurons | ~29%
COC1OC(C)C(OC2OC(C)C(OS(=O)(=O)O)C(OC3OC(C)C(OC4OC(C)C(OS(=O)(=O)O)C(OC5OC(C)C(OC6OC(C)C(OS(=O)(=O)O)C(OC7OC(C)C(OC8OC(C)C(OS(=O)(=O)O)C(OC9OC(C)C(OC%10OC(C)C(OS(=O)(=O)O)C(OC%11OC(C)C(OS(=O)(=O)O)C(OS(=O)(=O)O)C%11O)C%10O)C(OS(=O)(=O)O)C9O)C8O)C(OS(=O)(=O)O)C7O)C6O)C(OS(=O)(=O)O)C5O)C4O)C(OS(=O)(=O)O)C3O)C2O)C(OS(=O)(=O)O)C1O (stereo not shown) | – | human plasma | 128 µg/mL | – | activated partial thromboplastin time | 44.6 ± 0.3 s
Nc1nc2cc(CC[C@H]3C[C@@H](n4ccc5c(N)ncnc54)[C@H](O)[C@@H]3O)ccc2cc1Br | – | A-427 xenograft, mouse | 3.0 mg/kg/day, day 34 | – | %ΔTGI | 107%
O=C([O-])CN1CCN(CC(=O)[O-])CCN(CC(=O)c2ccc(-c3ccc(OCC(=O)O)cc3)cc2)CCN(CC(=O)[O-])CC1.[Gd+3] | – | PBS | 0.3 mM, 25 °C, 7 T | – | T1 relaxation time | 558 ms
COC1OC(C)C(OS(=O)(=O)O)C(OC2OC(C)C(OS(=O)(=O)O)C(OC3OC(C)C(OS(=O)(=O)O)C(OC4OC(C)C(OS(=O)(=O)O)C(OC5OC(C)C(OS(=O)(=O)O)C(OC6OC(C)C(OS(=O)(=O)O)C(OC7OC(C)C(OS(=O)(=O)O)C(OC8OC(C)C(OS(=O)(=O)O)C(OC9OC(C)C(OS(=O)(=O)O)C(OC%10OC(C)C(OS(=O)(=O)O)C(OS(=O)(=O)O)C%10OS(=O)(=O)O)C9OS(=O)(=O)O)C8OS(=O)(=O)O)C7OS(=O)(=O)O)C6OS(=O)(=O)O)C5OS(=O)(=O)O)C4OS(=O)(=O)O)C3OS(=O)(=O)O)C2OS(=O)(=O)O)C1OS(=O)(=O)O (stereo not shown) | – | human plasma | 16 µg/mL | – | activated partial thromboplastin time | 74.1 s and 73.8 s and 74.2 s
COc1ccc(C(=O)CCc2cc(C(CCc3ccc(O)cc3OC)c3ccc(O)cc3)c(O)cc2OC)cc1 (racemic) | – | human blood | 30 µM, added: A23187 | – | TXB2 level | 1030 ± 383 pg/mL
COCC1CN(C2CCN(c3cc(OC)c(Nc4ncc(Br)c(Nc5ccc6c(c5P(C)(C)=O)OCCO6)n4)cc3C)CC2)C1 | RECIST 1.1 | advanced EGFR-mutant NSCLC patients | 90 mg once daily | – | not evaluable patients | 0%
NC[C@@H](C(=O)Nc1ccc(-c2cn[nH]c2)cc1)c1ccccc1 | tonometry | Macaca cyclopis, ocular normotensive | ocular, 0.03%, 4 h | – | IOP | 17.6 mmHg
COC1OC(C)C(OC2OC(C)C(OS(=O)(=O)O)C(OC3OC(C)C(OC4OC(C)C(OS(=O)(=O)O)C(OC5OC(C)C(OC6OC(C)C(OS(=O)(=O)O)C(OC7OC(C)C(OS(=O)(=O)O)C(OS(=O)(=O)O)C7OS(=O)(=O)O)C6OS(=O)(=O)O)C(OS(=O)(=O)O)C5OS(=O)(=O)O)C4OS(=O)(=O)O)C(OS(=O)(=O)O)C3OS(=O)(=O)O)C2OS(=O)(=O)O)C(OS(=O)(=O)O)C1OS(=O)(=O)O (stereo not shown) | – | human plasma | 32 µg/mL | – | activated partial thromboplastin time | 132 s and 141 s and 134 s
C[C@@H](Nc1c(-c2c(F)cc(C#N)cc2F)c(Cl)nc2ncnn12)C(C)(C)C | microtubule stabilization, measured: detyrosinated tubulin | wild-type mice, brain | – | – | minimum effective dose | 1 mg/kg
